# Results gathered from unrelated publications.
# Protocols differ between the studies behind these lines. Numbers after ± are the reported error. Where no end group is shown, it is not given here.
Molecule,target or system,test,test system,conditions,scale,endpoint,result
CS/C(S)=N/CCCC[S+](C)[O-] (racemic),,refers to: carbohydrate sulfotransferase 1,"rat, mammary gland","oral gavage, 200 mg/kg, 4 days daily",reference: vehicle,mRNA level,14.9 fold
Cn1c(-c2ccc(Br)s2)nc2cc(-c3nnc(-c4cc(-c5ccc(Cl)cc5Cl)nc5ccccc45)o3)ccc21,,,human platelet-rich plasma,concentration not given,,plasma recalcification time,390 s
CC(=O)Nc1ccc(C2=NNC(=O)C[C@H]2C)cc1,,,guinea pig papillary muscle,"up to 30 µM, with: forskolin 0.1 µM",reference: baseline,increase in contraction force,334 ± 31 mg
c1cncc(-c2cc3ccccc3[nH]2)c1,RAW264.7,"NO release, inhibitor, Griess",,"50 µM, 20 h, LPS-stimulated",,inhibition,46.6%
Oc1cccc2ccccc12,,fish short-term reproduction,"Oryzias latipes, male, liver","80.0 µg/L, 21 d",,vitellogenin level,2.2 ± 1.3 ng/mg liver
TDVDHVFARF-NH2 (C-amide),,gut contraction,"Drosophila melanogaster adult, isolated gut","1 µM, up to 10 min",reference: DMS,inhibition,inactive
CC(C)n1nc(-c2ccc3oc(N)nc3c2)c2c(N)ncnc21,,,Pten L/L mouse,"oral gavage, 1 mg/kg daily, 60 days",,invasive prostate cancer progression,inhibited
PACAP,,refers to: ADAM17,"APP V717I transgenic mice, brain","intranasal, dose not given, 3 months",reference: vehicle,mRNA level,120 ± 9.1%
CCCCCCCCCC(=O)N[C@@H](Cc1c[nH]c2ccccc12)C(=O)N[C@H](CC(N)=O)C(=O)N[C@@H](CC(=O)O)C(=O)N[C@@H]1C(=O)NCC(=O)N[C@@H](CCCN)C(=O)N[C@@H](CC(=O)O)C(=O)N[C@H](C)C(=O)N[C@@H](CC(=O)O)C(=O)NCC(=O)N[C@H](CO)C(=O)N[C@@H]([C@H](C)CC(=O)O)C(=O)N[C@@H](CC(=O)c2ccccc2N)C(=O)O[C@@H]1C,,,Japanese patients with SSTI,"intravenous, 4 mg/kg once daily, 7 to 14 days, test-of-cure, MITT-MRSA",,microbiological success,56.4%
CCn1cnc(C[C@H](NC(=O)[C@@H]2CCC(=O)C2)C(=O)N2CCC[C@H]2C(N)=O)c1,,,Swiss albino mice,"intravenous, 10 µmol/kg, with: pentobarbital 50 mg/kg i.p. 10 min later",,sleeping time,27.8 ± 4.8 min
O=Cc1c(-c2ccccc2)[nH]c2ccccc12,RAW264.7,sulforhodamine B,,"50 µM, 20 h",reference: vehicle,viability,110 ± 6.7%
CC[C@@H](C(=O)Nc1ccc(C(N)=O)c(F)c1)n1cc(OC)c(-c2cc(Cl)ccc2-n2cc(C(F)(F)F)nn2)cc1=O,,,"New Zealand White rabbit, FeCl2 jugular injury","intravenous, 0.6 mg/kg",,thrombus weight,4.5 mg
insulin aspart,,,obese type 2 diabetes patients,"subcutaneous, 0.2 U/kg, within 2 min before 692 kcal meal",,plasma glucose AUC(0-1 h),158 mg·h/dL
Cc1cc2nc(-c3ccc(OCc4ccccc4)cc3)[nH]c2cc1C,,"ABTS scavenging, absorbance",,,,IC50,1660 nM
Cc1cccc2nc(-c3ccc(S(C)(=O)=O)cc3)c(Nc3ccccc3)n12,,formalin test,male Wistar rat,"intraperitoneal, 40 mg/kg",reference: control group,pain score AUC,decreased
C[C@@H]1COCCN1c1cc([C@]2(O)C[C@H]3CC[C@@H](C2)O3)c2cnn(-c3cc[nH]n3)c2n1,,refers to: phospho-KAP1 Ser824,"mouse, LoVo xenograft, tumour","7 mg/kg daily for 7 days, 24 h after last dose",reference: background,fold induction,8.1
cilengitide,,,"Sprague-Dawley rats, ethanol control, colon","ip, 18 mg/kg/day, 42 d",,muscularis propria thickness,100 ± 5 µm
COc1ccc([C@H](CC(=O)O)N2CCN(CCCc3ccc4c(n3)NCCC4)C2=O)cn1,,bioluminescence imaging,"B16F10-luc, mouse, melanoma lung metastasis model",300 mg/kg twice daily,reference: vehicle,lung metastasis reduction,30 to 40%
CC1(C)CCC(CN2CCN(c3ccc(C(=O)NS(=O)(=O)c4ccc(NCC5CCOCC5)c([N+](=O)[O-])c4)c(Oc4cnc5[nH]ccc5c4)c3)CC2)=C(c2ccc(Cl)cc2)C1,,"cell kill, PI exclusion flow cytometry","normal CD21+ B lymphocytes, dog, peripheral blood",24 h,,EC50,1140 ± 1550 nM
Polymyxin B,,,human whole blood,"500 ng/mL, 4 h, 37 °C, with: E. coli LPS 0.5 ng/mL",reference: LPS without compound,IL-10 release,32.5 ± 15.8%
CC(=O)O[C@@]12CO[C@@H]1C[C@H](O)[C@@]1(C)C(=O)[C@H](O)C3=C(C)[C@@H](OC(=O)[C@H](O)[C@@H](NC(=O)OC(C)(C)C)c4ccccc4)C[C@@](O)([C@@H](OC(=O)c4ccccc4)[C@H]21)C3(C)C,,,"mouse, PC-3 xenograft","5 mg/kg once weekly for 3 weeks, day 21 after inoculation",,tumour volume,170 ± 22.5 mm3
CC(C)Cc1ccc(C(C)C(=O)O)cc1 (stereo not shown),,paw pressure test,"rat, CFA arthritis","oral, 100 mg/kg, day 14 after CFA",,pain threshold,65.3 ± 2.4 g
C[N+](C)(C)CCOC(N)=O,,,rat aortic rings,"1000 nM, no TP508, with: norepinephrine 500 nM",,vasorelaxation,32%
COc1ccc2c(c1)c(CC(=O)O)c(C)n2C(=O)c1ccc(Cl)cc1,,paw oedema,rat,"intraperitoneal, 5 mg/kg",,inhibition in vivo,52.8%
Cc1c(C(=O)NN2CCCCC2)nn(-c2ccc(Cl)cc2Cl)c1-c1ccc(Cl)cc1,,euglycemic clamp,"rat, diet-induced obese, skeletal muscle","intraperitoneal, 10 mg/kg, 6 days",reference: vehicle,glucose uptake,increased
Cc1cccc2nc(-c3ccc(S(C)(=O)=O)cc3)c(Nc3ccc(F)cc3)n12,,formalin test,male Wistar rat,"intraperitoneal, 40 mg/kg",reference: control group,pain score AUC,decreased
insulin degludec,,euglycaemic clamp,healthy human subjects,"subcutaneous, 0.4 U/kg",lower limit,duration of glucose-lowering effect,> 24 h
CC[C@@H]1[C@H](F)C(=O)N[C@@H]1COc1nccc2cc(C(N)=O)c(OC)cc12,,,BALB/c mouse pristane-induced lupus,"in chow, 200 mg/kg, weeks 8 to 20, read at week 20",,anti-dsDNA titre,8160 ± 1280 U/mL
CC1(C)C(/C=C/C2=C(Oc3ccc(CCC(=O)N[C@H]4CSSC[C@@H](C(=O)O)NC(=O)[C@H](CC(=O)O)NC(=O)[C@@H]5CCCN5C(=O)CNC(=O)[C@H](CCCCN)NC(=O)[C@H](CC(=O)O)NC(=O)CNC(=O)[C@H](CCCNC(=N)N)NC4=O)cc3)C(=C/C=C3/N(CCC[N+](C)(C)C)c4ccc(S(=O)(=O)O)cc4C3(C)C)/CCC2)=[N+](CCC[N+](C)(C)C)c2ccc(S(=O)(=O)O)cc21,,fluorescence imaging,"C57BL/6 mice, orthotopic LLC lung tumour","10 nmol, 24 h",,fluorescence decay rate at tumour boundary,368 cm⁻¹
O=C1[C@H](CC[C@H](O)c2ccc(F)cc2)[C@@H](c2ccc(O)cc2)N1c1ccc(F)cc1,,,human,"dose not given, 10 days","reference: baseline, decrease",LDL-C change,9.7%
Cc1ccc(NC(=O)c2ccc(CN3CCN(C)CC3)cc2)cc1Nc1nccc(-c2cncc(-c3oncc3C)c2)n1,,,mild-to-moderate Parkinson's disease patients,"oral, 50 mg once daily, pre-dose baseline, practically defined OFF state",direction not given,MDS-UPDRS part III score,28.2 ± 9.6
CC(C)C[C@@H]1NC(=O)[C@H](CCCNC(=N)N)NC(=O)[C@H](Cc2c[nH]c3ccccc23)NC(=O)[C@H](CCCNC(=N)N)NC(=O)CNC(=O)CNC(=O)[C@H](CCCCN)NC(=O)CNC(=O)[C@H](Cc2c[nH]c3ccccc23)NC(=O)[C@H](CC(=O)O)NC(=O)[C@@H](NC(=O)[C@H](CCC(=O)O)NC(=O)[C@H](C)NC(=O)CCCC[C@@H]2SC[C@@H]3NC(=O)N[C@@H]32)CSSC[C@@H](C(=O)NCC(=O)N2CCC[C@H]2C(=O)O)NC(=O)[C@H](C)NC(=O)[C@H](CCC(=O)O)NC(=O)[C@H]([C@@H](C)O)NC(=O)[C@H](CCCCN)NC(=O)CNC(=O)[C@H](CO)NC(=O)[C@H](C)NC(=O)CNC(=O)[C@@H]2CCCN2C(=O)[C@H](Cc2c[nH]c3ccccc23)NC1=O,,"thioflavin S, Congo red","APPswe/PSEN1(A246E) mouse, young, brain cortex","s.c., once monthly, 5 to 12 months, without adjuvant",reference: mock-immunized,amyloid plaque burden,38 ± 5%
CCO[C@@H](Cc1ccc(OCCn2c(C)ccc2-c2ccc(SC)cc2)cc1)C(=O)O,,hepatic PPAR target gene induction,"dyslipidemic Sprague-Dawley rat, liver",with: ACC inhibitor,,effective dose,≥ 0.3 mg/kg
Cc1cc(C)c(/C=C2\C(=O)Nc3ccccc32)[nH]1,,"MRI, enhancing lesion",human,"concentration not given, 5.3 months",,tumour area,4.6 cm²

# For quick reference, copied from above:
Molecule,target or system,test,test system,conditions,scale,endpoint,result
PACAP,,refers to: ADAM17,"APP V717I transgenic mice, brain","intranasal, dose not given, 3 months",reference: vehicle,mRNA level,120 ± 9.1%
CCCCCCCCCC(=O)N[C@@H](Cc1c[nH]c2ccccc12)C(=O)N[C@H](CC(N)=O)C(=O)N[C@@H](CC(=O)O)C(=O)N[C@@H]1C(=O)NCC(=O)N[C@@H](CCCN)C(=O)N[C@@H](CC(=O)O)C(=O)N[C@H](C)C(=O)N[C@@H](CC(=O)O)C(=O)NCC(=O)N[C@H](CO)C(=O)N[C@@H]([C@H](C)CC(=O)O)C(=O)N[C@@H](CC(=O)c2ccccc2N)C(=O)O[C@@H]1C,,,Japanese patients with SSTI,"intravenous, 4 mg/kg once daily, 7 to 14 days, test-of-cure, MITT-MRSA",,microbiological success,56.4%
CCn1cnc(C[C@H](NC(=O)[C@@H]2CCC(=O)C2)C(=O)N2CCC[C@H]2C(N)=O)c1,,,Swiss albino mice,"intravenous, 10 µmol/kg, with: pentobarbital 50 mg/kg i.p. 10 min later",,sleeping time,27.8 ± 4.8 min
O=Cc1c(-c2ccccc2)[nH]c2ccccc12,RAW264.7,sulforhodamine B,,"50 µM, 20 h",reference: vehicle,viability,110 ± 6.7%
CC[C@@H](C(=O)Nc1ccc(C(N)=O)c(F)c1)n1cc(OC)c(-c2cc(Cl)ccc2-n2cc(C(F)(F)F)nn2)cc1=O,,,"New Zealand White rabbit, FeCl2 jugular injury","intravenous, 0.6 mg/kg",,thrombus weight,4.5 mg
